# Measured values from different studies.
# Compare with care: the assays were run in different laboratories.
# Read-out: metabolic stability
# Host: human
# Matrix: liver microsomes
Compound,tested at,time,pH,compound remaining
CC(C)Cn1c(SCC(=O)N2CCc3ccccc3C2)nc2cc(Cl)ccc2c1=O,,1 h,,0.1%
COc1ccc(S(=O)(=O)Nc2ccc(NS(=O)(=O)c3ccc(OC)cc3)c3ccccc23)cc1,10 µM,30 min,pH 7.4,5.6%
"COc1cc(C)c(-c2ccc(O)c3c2C[C@@H](C)N[C@@H]3C)c2cccc(O)c12 (single isomer, unassigned)",1 µM,30 min,,83%
CCC1CC2C(C)=CC3C(=O)CCCC3C=CC(C)=CC2C(=O)O1 (stereo not drawn),1 µM,30 min,pH 7.4,7.12%
CC1=N[C@H](C)Cc2c(-c3ccc(C)cc3)ccc(O)c21,1 µM,30 min,,71%
Clc1ccc2c(c1)nc(N1CC3CNCC3C1)n2Cc1ccccc1 (stereo not drawn),0.1 µM,30 min,pH 7.4,92.2%
COc1ccc(S(=O)(=O)Nc2ccc(NS(=O)(=O)c3cnn(C)c3)cc2CCC(=O)O)cc1,10 µM,30 min,pH 7.4,61.2%
Brc1ccccc1-c1nnc(CSc2nnnn2-c2ccccc2)o1,,1 h,,6.6%
Clc1ccc2c(c1)nc(NCC1CCCN1)n2Cc1ccccc1 (stereo not drawn),0.1 µM,30 min,pH 7.4,98.9%
